Measurements of several laboratories.
Compare with care: the assays were run in different laboratories. Several values in a cell are separate wells, animals, samples, runs or records. ± marks the error that the study gave.

O=S(=O)(NCCNC/C=C/c1ccc(Br)cc1)c1cccc2cnccc12
embryos arrested at zygote stage (PKA; inhibitor; mouse zygotes; 20 µM, Post hCG injection, 96 h, early embryonic development): 0%

N[C@@H](Cc1ccc(O)c(O)c1)C(=O)O
lowest IC30 across channels (human seizure ion channel panel; ion current, automated patch clamp): > 30 µM

CC[C@@H](C(=O)Nc1ccc(C(N)=O)c(F)c1)n1cc(OC)c(-c2cc(Cl)ccc2-n2cc(C(F)(F)F)nn2)cc1=O
IC50 (human trypsin; enzyme activity): 9.1 µM

c1ccc(CSc2nc3ccccc3cc2CNCc2ccc(CN3CCCC3)cc2)cc1
inhibition (electron transport chain; proton pumping, ACMA quenching; Pseudomonas aeruginosa inverted membrane vesicles; 32 µg/mL, together with: NADH): 87%

CC(C)(c1ccc(O)cc1)c1ccc(O)cc1
cross-reactivity (camel nanobody T2; binding, competitive ELISA; concentration not given): < 0.1%

c1coc(-c2n[nH]cc2-c2ccnc3ccccc23)c1
log2 fold change (PTK2 (Candida albicans); kinase binding, MIB/MS competition; Candida albicans lysate; 10 µM; relative to: DMSO): 0.14

CC[S+]([O-])c1nc(-c2ccccc2)cc(C(F)(F)F)n1 (stereo not shown)
cells with nuclear reporter (importin alpha/beta-1; cMyc nuclear import, high content imaging; HeLa Kyoto reporter; 0.0158 µM, 2 h): 87.4% and 88.4% and 85.4% and 77%

CC(CN(C)C)CN1c2ccccc2CCc2ccccc21 (stereo not shown)
Km (H+/organic cation antiporter; cell uptake; hCMEC/D3): 21.2 µM

CN1CCN(CCNCc2cc3ccccc3nc2SCc2ccccc2)CC1
inhibition (electron transport chain; proton pumping, ACMA quenching; Pseudomonas aeruginosa inverted membrane vesicles; 2 µg/mL, together with: NADH): 13%

CC(=O)ON=C1C=CC(=C(C#N)c2ccccc2)C=C1
remaining activity (Leishmania major CK1; enzyme activity, inhibitor, ADP-Glo; 2 µM, about MIC/10, together with: ATP 10 µM): 111%

CCN1CCC(CCNCc2cc3cc(OC)c(OC)c(OC)c3nc2SCc2ccccc2)CC1
inhibition (electron transport chain; proton pumping, ACMA quenching; Pseudomonas aeruginosa inverted membrane vesicles; 2 µg/mL, together with: NADH): 6%

CCCOC(C(=O)OC1CCN(C)CC1)(c1ccccc1)c1ccccc1
Vmax (H+/organic cation antiporter; cell uptake; hCMEC/D3): 2680 pmol/min/mg protein

c1ccc(CSc2nc3ccccc3cc2CNCc2ccc(N3CCCCC3)cc2)cc1
inhibition (electron transport chain; proton pumping, ACMA quenching; Pseudomonas aeruginosa inverted membrane vesicles; 32 µg/mL, together with: NADH): 86%

C[n+]1cccc2cc(C=NNC(=O)c3ccc4ccc5ccc(C(=O)NN=Cc6ccc7c(ccc[n+]7C)c6)nc5c4n3)ccc21.[I-].[I-]
ΔTm (telomeric G4 DNA hybrid-2; FRET melting; 1 µM, DNA 0.2 µM): 35.9 ± 0.1 °C

COc1cccc2c1C(=O)c1c(O)c3c(c(O)c1C2=O)C[C@@](O)(C(=O)CO)C[C@@H]3O[C@H]1C[C@H](N)[C@H](O)[C@H](C)O1
limit of detection (calf thymus DNA; DNA damage, Tb3+ fluorescence; 24 h): 0.76 nM

Oc1ccccc1-c1n[nH]cc1-c1ccnc2ccccc12
log2 fold change (SAK1 (Candida albicans); kinase binding, MIB/MS competition; Candida albicans lysate; 1 µM; relative to: DMSO): -0.04

CCN(CC)CCNC(=O)c1c(C)[nH]c(/C=C2\C(=O)Nc3ccc(F)cc32)c1C
inhibition (PKCβII (human); kinase activity, inhibitor; 10 µM): 5%

CCCNC(C)C(=O)Nc1c(C)csc1C(=O)OC (stereo not shown)
Vmax (H+/organic cation antiporter; cell uptake; hCMEC/D3): 364 pmol/min/mg protein

CC(C)COc1ccc(CNC(=O)N(Cc2ccc(F)cc2)C2CCN(C)CC2)cc1
lowest IC30 across channels (human seizure ion channel panel; ion current, automated patch clamp): 0.561 µM

O=C(O[C@H]1CN2CCC1CC2)N1CCc2ccccc2[C@@H]1c1ccccc1
Km (H+/organic cation antiporter; cell uptake; hCMEC/D3): 11.8 µM

C#CCOc1ccccc1N1CCN(C(=O)c2cccc(S(=O)(=O)n3cnc(C4CC4)n3)c2)CC1
ratio of Tyr24 modification (AKR1C1 (human); label-free chemoproteomics LC-MS/MS; COLO 205; 100 µM, 4 h, 37 °C; relative to: AKR1C3 Tyr24 over AKR1C1 Tyr24): > 10 fold

COC(=O)C1=C(C)NC(C)=C(C(=O)OC)C1c1ccccc1[N+](=O)[O-]
lowest IC30 across channels (human seizure ion channel panel; ion current, automated patch clamp): 22.1 µM

Cn1cc(-c2ccc(-c3cncc(Cl)c3N3CCC4(CCNC4=O)CC3)cc2)cn1
fold change in expression (COLO 205; microarray, refers to: LGALS1; concentration not given, 6 h, gene set Galectin-1; relative to: untreated cells): 4.24

O=C1NC(=O)C(c2ccccc2)(c2ccccc2)N1
lowest IC30 across channels (human seizure ion channel panel; ion current, automated patch clamp): > 30 µM

CCCCN1CCCCC1C(=O)Nc1c(C)cccc1C (stereo not shown)
Vmax (H+/organic cation antiporter; cell uptake; hCMEC/D3): 641 pmol/min/mg protein

CCS(=O)(=O)c1nc(C2CC2)cc(C(F)(F)F)n1
cells with nuclear reporter (importin alpha/beta-1; cMyc nuclear import, high content imaging; HeLa Kyoto reporter; 1.58 µM, 2 h): 91.5% and 90.5% and 64.8% and 97.2%

CN1CCN(CCNCc2cc3cc(-c4ccccc4)ccc3nc2SCc2ccccc2)CC1
inhibition (electron transport chain; proton pumping, ACMA quenching; Pseudomonas aeruginosa inverted membrane vesicles; 2 µg/mL, together with: NADH): 13%

COc1nc(NCc2cn(-c3ccc(C(=O)Nc4ccccc4)cc3)nn2)nc(OC)n1
limit of detection (calf thymus DNA; DNA damage, Tb3+ fluorescence; 24 h): 2.67 nM

COCCc1ccc(OCC(O)CNC(C)C)cc1 (stereo not shown)
Vmax (H+/organic cation antiporter; cell uptake; hCMEC/D3): 1280 pmol/min/mg protein

C[C@H]1C[C@@H](N2C(=N)N[C@](C)(c3cccc(NC(=O)c4cccc(C#N)c4)c3Cl)CC2=O)CCO1
IC50 (human cardiac ion channels; ion current; panel other channels): > 30 µM

Cc1cccc(C)c1NC(=O)C1CCCCN1C (stereo not shown)
Vmax (H+/organic cation antiporter; cell uptake; hCMEC/D3): 1500 pmol/min/mg protein

CC(C)n1ccnc1CN1CCN(Cc2nccn2C(C)C)CCN(Cc2nccn2C(C)C)CC1
stability constant difference (Zn2+; potentiometric titration; relative to: Zn2+ over Mn2+): ≥ 9 orders of magnitude

COc1ccc2c(c1)N(C[C@H](C)CN(C)C)c1ccccc1S2
Km (H+/organic cation antiporter; cell uptake; hCMEC/D3): 9.7 µM

C[C@@H]1CC[C@H]2[C@@H](/C1=C/C[C@H]1[C@]3(C)CCC(=O)C(C)(C)O[C@H]3CC[C@]1(C)O)C(C)(C)CC[C@]2(C)O
paclitaxel remaining (P-glycoprotein human; inhibitor, efflux; KB-C2; 10 µM, 60 min, together with: [3H]-paclitaxel): 68.7%

Repeated from above:
CC(C)(c1ccc(O)cc1)c1ccc(O)cc1
cross-reactivity (camel nanobody T2; binding, competitive ELISA; concentration not given): < 0.1%

c1coc(-c2n[nH]cc2-c2ccnc3ccccc23)c1
log2 fold change (PTK2 (Candida albicans); kinase binding, MIB/MS competition; Candida albicans lysate; 10 µM; relative to: DMSO): 0.14

CC[S+]([O-])c1nc(-c2ccccc2)cc(C(F)(F)F)n1 (stereo not shown)
cells with nuclear reporter (importin alpha/beta-1; cMyc nuclear import, high content imaging; HeLa Kyoto reporter; 0.0158 µM, 2 h): 87.4% and 88.4% and 85.4% and 77%

CC(CN(C)C)CN1c2ccccc2CCc2ccccc21 (stereo not shown)
Km (H+/organic cation antiporter; cell uptake; hCMEC/D3): 21.2 µM
